Literature values as cited in several papers.
± gives the spread as reported. Where no end group is shown, it is not given here.
rep papain-like protease: Replicase polyprotein 1ab, papain-like protease (rep, Severe acute respiratory syndrome coronavirus 2, UniProt P0DTD1)
Chain of UniProt Q8TCC7 (whole entry, looked up): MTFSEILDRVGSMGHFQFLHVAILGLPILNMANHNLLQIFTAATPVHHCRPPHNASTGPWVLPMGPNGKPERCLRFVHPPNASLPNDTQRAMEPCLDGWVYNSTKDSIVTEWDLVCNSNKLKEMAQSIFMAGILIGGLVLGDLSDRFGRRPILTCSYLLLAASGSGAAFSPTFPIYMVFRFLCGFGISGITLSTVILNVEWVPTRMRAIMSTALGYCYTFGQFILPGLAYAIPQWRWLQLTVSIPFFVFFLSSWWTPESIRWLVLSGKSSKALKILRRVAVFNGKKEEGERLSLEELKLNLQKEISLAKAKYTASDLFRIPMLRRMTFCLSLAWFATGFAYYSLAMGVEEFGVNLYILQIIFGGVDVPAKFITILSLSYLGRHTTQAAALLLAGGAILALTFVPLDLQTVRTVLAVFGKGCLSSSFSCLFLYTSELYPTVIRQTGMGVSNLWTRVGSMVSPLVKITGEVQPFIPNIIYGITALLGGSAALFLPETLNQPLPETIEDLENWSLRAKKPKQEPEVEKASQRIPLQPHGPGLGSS

Z-FA-FMK — IC50 (Replicase polyprotein 1ab, main protease (rep, Severe acute respiratory syndrome coronavirus 2, UniProt P0DTD1); gain-of-signal): > 25 µM
C[C@@H]1C[C@H]2[C@@H]3CCC4=CC(=O)C=C[C@]4(C)[C@@]3(F)[C@@H](O)C[C@]2(C)[C@@]1(O)C(=O)CO — IC50 (SLC22A8 (Homo sapiens, UniProt Q8TCC7); transport activity, inhibitor): 47.1 µM
COc1ccc2nc3cc(Cl)ccc3c(Nc3cc(CN4CCCC4)c(O)c(CN4CCCC4)c3)c2n1 — IC50 (rep papain-like protease; enzyme activity, inhibitor): 1.8 µM
CC(C)(C)[C@H](NC(=O)C(F)(F)F)C(=O)N1C[C@H]2[C@@H]([C@H]1C(=O)N[C@H](C#N)C[C@@H]1CCNC1=O)C2(C)C — CC50 (Vero; cytotoxicity): > 100 µM
GDCLPHLKRCKENNDCCSKKCKRRGTNPEKRCR (opicalcin 1; ends and bridges not checked; cysteine pairing not given here; sequence looked up) — Kd (RyR1; [3H]ryanodine binding stimulation, activator; peptide): 0.0003 ± 4e-05 µM
Nc1nc2nc[nH]c2c(=S)[nH]1 — IC50 (rep papain-like protease; FlipGFP cell-based): > 60 µM
CN(C)CCCN1c2ccccc2Sc2ccccc21 — EC50 (Ebola virus; viral replication; Vero E6, eGFP reporter): 21 µM
CCR5 — Kd (HIV-1 gp120/CD4 complex; ternary complex binding): 0.005 µM
CN(C)CCOc1ccc(/C(=C(/CCCl)c2ccccc2)c2ccccc2)cc1 — IC50 (Ebola virus; viral replication, eGFP reporter virus; Vero E6): 0.162 µM
CN(Cc1ccccc1C(=O)NCC1CCCCC1)Cc1ccc2c(c1C(=O)O)OCO2 — Kd (Gag-Pol polyprotein, integrase catalytic core domain (gag-pol, Human immunodeficiency virus 1, UniProt P12497, C1203S/F1286D/F1332H); binding, SPR): > 2000 µM
CC(=O)c1c(O)c(C)c(O)c2c1OC1=CC(=O)C(C(C)=O)C(=O)C12C (stereo not drawn) — Ki (paraoxonase 1, human; inhibitor): 107 ± 60 µM
iberiotoxin — Kd (KCa1.1; whole-cell patch clamp): < 0.001 µM

For quick reference, copied from above:
CC(C)(C)[C@H](NC(=O)C(F)(F)F)C(=O)N1C[C@H]2[C@@H]([C@H]1C(=O)N[C@H](C#N)C[C@@H]1CCNC1=O)C2(C)C — CC50 (Vero; cytotoxicity): > 100 µM
iberiotoxin — Kd (KCa1.1; whole-cell patch clamp): < 0.001 µM
